Results gathered from unrelated publications.
Compare with care: the assays were run in different laboratories.
Target: Serine/threonine-protein kinase Nek4 (NEK4, Homo sapiens, UniProt P51957)

The remaining binding of C=CC(=O)N1CCCC(n2c(=O)c3ncccc3n(Cc3ccc(Oc4ccccc4)cc3)c2=O)C1 (stereo not drawn) is reported as 87% (cell-free assay, competition with immobilised ligand; 1 µM).
COc1cc(Nc2nc(C)cc(-c3cnn4nc(OC)ccc34)n2)cc(C(F)(F)F)c1 gave a remaining activity of 90% (inhibitor; 1 µM; reference: control).
With C=CC(=O)Nc1cc(-c2nn(C3CCN(CCNC(=O)[C@H](C)CCC45CC6CC(CC(C6)C4)C5)CC3)c3ncnc(N)c23)ccc1Oc1ccccc1 the inhibition was 7.6% (inhibitor, KiNativ profiling; biochemical; 2 µM).
Nc1ncc2c(n1)-c1c([nH]c3ccc(C4=CCOCC4)cc13)CCC2 gave a remaining binding of 100% (binding, competition with immobilised ligand; 1 µM).
Cc1cnc2nc1Nc1cccc(c1)COC/C=C/COCc1cc(ccc1OCCN1CCOCC1)N2 has a remaining binding of 100% (binding; 0.1 µM).
With Nc1ncc(-c2cc(-c3cnn(CC(F)(F)F)c3)ncc2F)nc1C(=O)NC1CNCC(F)C1 (stereo not drawn) the remaining activity was 104% (enzyme activity; 1 µM; reference: DMSO control).
For NC(=O)[C@@H](O)C[C@H]1CCc2sc3ncnc(O[C@H]4CC[C@H](N5CCOCC5)CC4)c3c21, the inhibition was 0% (enzyme activity, inhibitor; 10 µM).
CNC(=O)C[C@H](Cc1ccc(C#N)cc1)NC(=O)c1cc(-c2ccc(CN[C@H](C)c3ccc(C)cc3)o2)ccc1Cl: “activity vs control” 116% (enzyme activity, inhibitor; 1 µM).
C=CC(=O)N1CCc2ccc(-n3c(=O)ccc4cnc5ccc(-c6cnn(C)c6)cc5c43)cc21 gave a remaining binding of 100% (KINOMEscan; 1 µM; reference: DMSO control).
The inhibition of CS(=O)(=O)Nc1cccc(-c2csc3cnc(Nc4ccc(N5CCN(CCCCCOc6cccc7c6C(=O)N(C6CCC(=O)NC6=O)C7=O)CC5)cc4)nc23)c1 (stereo not drawn) is reported as 6.75% (probe labelling, inhibitor, KiNativ chemoproteomics; MOLT-4; 1 µM).
C=CC(=O)N1Cc2nc(-c3cc(-c4cc(Cl)cnc4Cl)c(F)cc3F)n(-c3ccncn3)c2C1 gave an inhibition of 6.4% (cell-free assay, inhibitor; 1 µM).
With COc1c(Cl)cccc1Nc1c(-c2ccncc2C#C[C@@]2(C)CCCN2C(=O)/C=C/CN(C)C)[nH]c2c1C(=O)NCC2 the remaining binding was 83% (binding, competition with immobilised ligand; 3 µM).

Excerpt of the above:
Nc1ncc2c(n1)-c1c([nH]c3ccc(C4=CCOCC4)cc13)CCC2 gave a remaining binding of 100% (binding, competition with immobilised ligand; 1 µM).
Cc1cnc2nc1Nc1cccc(c1)COC/C=C/COCc1cc(ccc1OCCN1CCOCC1)N2 has a remaining binding of 100% (binding; 0.1 µM).
